{"data": "Measurements collected from several papers", "note": "Lines come from different studies, so protocols differ. Several values in a cell are separate wells, animals, samples, runs or records. ± marks the error that the study gave."}
{"Compound": "O=C(NCCc1cccnc1)c1ccc(C2CCCCC2)cc1", "test": "hepatocyte stability", "test system": "cryopreserved mouse hepatocytes", "conditions": "1 µM", "endpoint": "hepatic clearance", "result": "74 mL/min/kg"}
{"Compound": "Cc1c(C(=O)O)ccc2c3n(nc12)[C@@H]1[C@H](C3)N(CC2CC2)[C@@]2(C(=O)Nc3cc(Cl)ccc32)[C@H]1c1cccc(Cl)c1F", "target or system": "LS180", "test": "cell growth, alamarBlue", "conditions": "unbound", "endpoint": "GI50", "result": "0.72 nM"}
{"Compound": "O=C(Nc1ccc(C2CCCCC2)cc1)[C@H]1CC1(F)F", "test": "hepatocyte stability", "test system": "cryopreserved rat hepatocytes", "conditions": "1 µM", "endpoint": "hepatic clearance", "result": "48 mL/min/kg"}
{"Compound": "CCc1cnc(N2CCC(c3nc(COc4ccc(-n5cnnn5)cc4)cs3)CC2)nc1", "target or system": "HEK-293T", "test": "RNA-seq GSEA, measured: HALLMARK_ESTROGEN_RESPONSE_EARLY", "conditions": "concentration not given", "scale": "direction not given", "endpoint": "normalized enrichment score", "result": 0.964}
{"Compound": "COc1cc(/C=C/C(=O)N2CCC=CC2=O)cc(OC)c1OC", "target or system": "MDA-MB-468", "test": "qRT-PCR, measured: GSS", "conditions": "30 µM, 6 h", "scale": "reference: time zero", "endpoint": "mRNA level", "result": "117 ± 11.3%"}
{"Compound": "O=C(C[C@@H](C(F)F)n1ccc(F)n1)N1CCC(O)(Cn2cnc3c(cnn3-c3ccc(F)cc3)c2=O)CC1", "target or system": "CHP-212 resistant", "test": "annexin V/PI flow cytometry", "conditions": "0.3 µM, 48 h", "endpoint": "necrotic cells", "result": "4.6% and 4.93% and 3.31%"}
{"Compound": "Nc1ncnc2c1ncn2[C@@H]1O[C@H](CO)[C@@H](O)[C@H]1O", "target or system": "activated human T cells", "conditions": "31.6 µM", "scale": "higher = more IFNγ", "endpoint": "IFNγ production", "result": "240 a.u. and 180 a.u. and 157 a.u."}
{"Compound": "Cc1n[nH]c(C)c1CSc1ccc(O)cc1", "target or system": "U-937", "test": "cytotoxicity", "scale": "reference: IC50 HEK293 over IC50 U-937", "endpoint": "selectivity index", "result": 1.5}
{"Compound": "CN(c1ccc(NC(=O)Nc2ccc(OC(F)(F)F)cc2)cc1)c1ccnc(Nc2cccc(S(N)(=O)=O)c2)n1", "target or system": "Trypanosoma brucei", "conditions": "unit not given", "scale": "reference: pEC50 T. brucei minus pTC50 HepG2", "endpoint": "selectivity", "result": 1.1}
{"Compound": "Nc1ccn([C@@H]2O[C@H](CO)[C@@H](O)[C@H]2O)c(=O)n1", "target or system": "activated human T cells", "conditions": "concentration not given, added: adenosine", "scale": "reference: DMSO", "endpoint": "T cell proliferation", "result": "22.7% and 45.8% and 54.3% and 24.9% and 32.4%"}
{"Compound": "COc1cnc2cccc(N3CCc4c(cc(Cn5ccnc5C)cc4-c4cn(C)nc4C(F)(F)F)C3=O)c2c1", "target or system": "SNU1", "test": "cell growth, inhibitor", "conditions": "120 h", "endpoint": "EC50", "result": "1860 nM"}
{"Compound": "C=CC1=C(C)c2cc3[n-]c(cc4nc(cc5[n-]c(cc1n2)c(C)c5C=C)C(C)=C4CCC(=O)O)c(CCC(=O)O)c3C.[Zn+2]", "target or system": "SH-SY5Y", "test": "RNA-seq, measured: ELL2 mRNA", "conditions": "5 µM, 5 h", "scale": "reference: untreated cells", "endpoint": "fold change", "result": 2.14}
{"Compound": "C=CCN1CC[C@]23c4c5ccc(O)c4O[C@H]2C(=O)CC[C@@]3(O)[C@H]1C5", "target or system": "CHO-WT cells", "test system": "cell membranes without MOR", "conditions": "10 µM, compound alone, basal", "endpoint": "G-protein activity", "result": "no effect"}
{"Compound": "Nc1cccc2c1C(=O)N(C1CCC(=O)NC1=O)C2=O (stereo not shown)", "target or system": "MM1.S resistant to compound", "test": "XTT", "conditions": "3 µM", "endpoint": "viability", "result": "20% and 12%"}
{"Compound": "C=CCn1c(=O)c2cnc(Nc3ccc(N4CCN(C)CC4)cc3)nc2n1-c1ccc2c(n1)[C@@](O)(CC)CC2", "target or system": "MDA-MB-231", "test": "flow cytometry", "conditions": "concentration not given", "endpoint": "EdU-negative S phase cells", "result": "25.4%"}
{"Compound": "Cc1nn(-c2nc3c(F)cc(F)cc3s2)c(O)c1C(c1ccc(C(F)(F)F)cc1)c1c(C)nn(-c2nc3c(F)cc(F)cc3s2)c1O", "target or system": "RAW-ISG", "test": "RT-qPCR", "conditions": "5 µM, 312 h, unit not given, added: HT-DNA", "scale": "reference: DMSO", "endpoint": "IFNB1 mRNA level", "result": "0.384 and 0.393 and 0.395"}
{"Compound": "COc1ccc(-n2nc(C(C)=O)s/c2=N\\N=C(/C)c2ccc(NC(=O)c3ccc(Cl)cc3)cc2)cc1", "target or system": "HepG2", "conditions": "0.625 µM", "endpoint": "viability", "result": "12.4%"}
{"Compound": "CC(C)NCC(O)c1ccc(O)c(O)c1 (stereo not shown)", "test system": "ventricular cardiomyocytes, C57BL/6 mouse", "conditions": "dose not given, 0.772 s", "endpoint": "sarcomere length", "result": "1.72 µm"}
{"Compound": "CCCCN1C[C@H](O)[C@@H](O)[C@H](O)[C@H]1CO", "target or system": "Sandhoff disease patient fibroblasts", "test": "glycosphingolipid lowering, LC-MS/MS, measured: GM3 d18:1/18:0", "test system": "human", "endpoint": "IC50", "result": "6020 nM"}
{"Compound": "CC1(C)CCC(CN2CCN(c3ccc(C(=O)NS(=O)(=O)c4ccc(NCC5CCOCC5)c([N+](=O)[O-])c4)c(Oc4cnc5[nH]ccc5c4)c3)CC2)=C(c2ccc(Cl)cc2)C1", "target or system": "MOLM-13 resistant to compound", "test": "cell growth", "endpoint": "GI50", "result": "> 4000 nM"}
{"Compound": "COc1c(C)c(OC)c(C(=O)/C=C/c2ccccc2)c(OC)c1C", "target or system": "KKU-M213", "test": "SRB", "scale": "reference: normal over KKU-M213 IC50", "endpoint": "selectivity index", "result": 0.8}
{"Compound": "CCCCCCCCCCCCCCCCCCOc1cccc(CC(=O)OCC[N+](CC)(CC)CC)c1", "target or system": "NSCLC panel (nine cell lines)", "conditions": "10 µM", "endpoint": "mean growth inhibition", "result": "40.3%"}
{"Compound": "CCn1c(-c2nonc2N)nc2c(C#CC(C)(C)O)nc(O[C@@H](CN)c3ccccc3)cc21", "target or system": "Trypanosoma brucei", "conditions": "unit not given", "scale": "reference: pEC50 T. brucei minus pTC50 HepG2", "endpoint": "selectivity", "result": 1.1}
{"Compound": "CCn1cc(-c2cc(Cn3ccnc3)cc3c2CCN([C@H](c2cc(OC)ccn2)C2CC2)C3=O)c(C(F)(F)F)n1", "target or system": "HLF", "test": "cell growth, inhibitor", "conditions": "120 h", "endpoint": "EC50", "result": "> 30000 nM"}
{"Compound": "Cn1cc(-c2ccc(-c3cncc(Cl)c3N3CCC4(CCNC4=O)CC3)cc2)cn1", "target or system": "COLO 205", "test": "gene expression, microarray, measured: HIST1H4D mRNA", "conditions": "concentration not given, 6 h", "scale": "reference: untreated cells", "endpoint": "log2 fold change", "result": -2.49}
{"note": "A few entries again:"}
{"Compound": "C=CCN1CC[C@]23c4c5ccc(O)c4O[C@H]2C(=O)CC[C@@]3(O)[C@H]1C5", "target or system": "CHO-WT cells", "test system": "cell membranes without MOR", "conditions": "10 µM, compound alone, basal", "endpoint": "G-protein activity", "result": "no effect"}
{"Compound": "Cc1c(C(=O)O)ccc2c3n(nc12)[C@@H]1[C@H](C3)N(CC2CC2)[C@@]2(C(=O)Nc3cc(Cl)ccc32)[C@H]1c1cccc(Cl)c1F", "target or system": "LS180", "test": "cell growth, alamarBlue", "conditions": "unbound", "endpoint": "GI50", "result": "0.72 nM"}
{"Compound": "COc1cnc2cccc(N3CCc4c(cc(Cn5ccnc5C)cc4-c4cn(C)nc4C(F)(F)F)C3=O)c2c1", "target or system": "SNU1", "test": "cell growth, inhibitor", "conditions": "120 h", "endpoint": "EC50", "result": "1860 nM"}
